Results gathered from unrelated publications.
Lines come from different studies, so protocols differ. ± marks the error that the study gave.
BTK: Tyrosine-protein kinase BTK (BTK, Homo sapiens, UniProt Q06187)
Sequence of UniProt Q06187 (whole entry, looked up): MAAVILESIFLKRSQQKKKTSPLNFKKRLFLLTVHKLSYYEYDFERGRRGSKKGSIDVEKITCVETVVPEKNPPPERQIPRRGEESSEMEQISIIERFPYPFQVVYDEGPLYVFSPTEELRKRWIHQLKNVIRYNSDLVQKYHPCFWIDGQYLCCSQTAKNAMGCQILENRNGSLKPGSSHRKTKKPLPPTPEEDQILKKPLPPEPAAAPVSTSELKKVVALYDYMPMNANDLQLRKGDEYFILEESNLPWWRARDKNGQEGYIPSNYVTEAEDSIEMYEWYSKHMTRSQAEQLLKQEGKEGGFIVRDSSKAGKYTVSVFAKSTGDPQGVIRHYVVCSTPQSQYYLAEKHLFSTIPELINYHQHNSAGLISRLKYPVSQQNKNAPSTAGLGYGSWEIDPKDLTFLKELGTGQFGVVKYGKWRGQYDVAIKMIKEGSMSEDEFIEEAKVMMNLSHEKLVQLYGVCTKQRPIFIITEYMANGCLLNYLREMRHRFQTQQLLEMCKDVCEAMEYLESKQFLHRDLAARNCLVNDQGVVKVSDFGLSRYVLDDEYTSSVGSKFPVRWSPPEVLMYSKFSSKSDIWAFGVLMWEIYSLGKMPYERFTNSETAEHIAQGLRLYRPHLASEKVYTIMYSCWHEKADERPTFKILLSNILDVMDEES
UCHL1: Ubiquitin carboxyl-terminal hydrolase isozyme L1 (UCHL1, Homo sapiens, UniProt P09936)
Sequence of UniProt P09936 (whole entry, looked up): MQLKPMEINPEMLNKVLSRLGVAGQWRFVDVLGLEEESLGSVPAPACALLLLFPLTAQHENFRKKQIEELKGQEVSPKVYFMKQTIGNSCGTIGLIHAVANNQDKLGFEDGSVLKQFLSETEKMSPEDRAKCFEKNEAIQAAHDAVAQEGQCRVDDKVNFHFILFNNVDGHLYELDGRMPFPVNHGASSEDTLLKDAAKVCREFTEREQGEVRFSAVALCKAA

SMILES | target | test | test system | conditions | scale | measurement | value
O=C(Cc1ccc(-c2ccccc2)cc1)Nc1cc(C2CCC2)[nH]n1 | BTK | inhibitor | – | concentration not given | – | activity | inactive
CCN(CC)c1ccc(C2=NNC(=O)CC2C)cc1[N+](=O)[O-] (stereo not drawn) | BTK | enzyme activity, inhibitor | – | 10 µM | relative to: vehicle | remaining activity | 127%
C#Cc1cccc(Oc2ccc(-c3nn([C@@H]4CCCN(C(=O)C=C)C4)c4ncnc(N)c34)cc2)c1 | BTK | ABPP-SILAC | – | 1 µM, 1 h | relative to: DMSO | SILAC ratio | 20
C[C@@H](c1ccc(-n2cnc3c(N)ncnc32)cc1)N1CCc2nn(C)c(Cc3ccccc3)c2C1=O | BTK | KINOMEscan | – | 0.1 µM | relative to: DMSO | remaining binding | 81%
O=C(CCl)Nc1nnc(SCc2ccccc2)s1 | UCHL1 | covalent, intact protein LC-MS | – | 12.5 µM | – | labelling | 30.9%
Cc1cc(Nc2cc(N3CCN(C)CC3)nc(Sc3ccc(NC(=O)C4CC4)cc3)n2)[nH]n1 | BTK | kinase activity, KinaseProfiler | – | 0.03 µM, species human | relative to: control | remaining activity | 91%
C1=C/COCc2cc(ccc2OCCN2CCCC2)Nc2nccc(n2)-c2cccc(c2)COC/1 | BTK | – | – | concentration not given | – | percent of control | 100%
COc1cc(F)ccc1-c1ncnc(Nc2cccc(C[S@](C)(=N)=O)c2)n1 | BTK | kinase activity | – | 10 µM, together with: 10 µM ATP | – | remaining activity | 90%
C=CC(=O)N1CCC[C@@H]1Cn1nc(-c2ccc(Oc3ccccc3)cc2F)c2c(N)ncnc21 | BTK | – | Ramos | – | – | residence time | 1380 ± 180 min
C=CC(=O)N1CCC(COCC(=O)N2CCN(c3nc(-c4cnc(N)nc4C(F)F)nc(N4CCOC[C@@H]4C)n3)CC2)CC1 | BTK | KINOMEscan | – | 1 µM | relative to: DMSO control | remaining binding | 100%
CCCOc1ccc(OC)c(F)c1C(=O)c1ccc(C(=O)N[C@@H]2CNC[C@H]2NC(=O)c2ccc3[nH]ncc3c2)cc1 | BTK | enzyme activity | – | 10 µM | – | remaining activity | 78%
CC(C)(C)C=C(C#N)C(=O)N1CCC[C@@H](n2nc(-c3ccc(Oc4ccccc4)cc3)c3c(N)ncnc32)C1 | BTK | fluorescence competition | – | room temperature | – | residence time | > 12000 min
CN1C(=O)C(=C(C#N)C(=O)NCc2ccc(Cl)cc2)c2ccccc21 | UCHL1 | covalent, intact protein LC-MS | – | 12.5 µM | – | labelling | 43.6%
C=CC(=O)Nc1cccc(Oc2nc(Nc3ccc(N4CCN(C)CC4)cc3)nc3ccoc23)c1 | Tyrosine-protein kinase BTK, activated (BTK, Homo sapiens, UniProt Q06187) | – | – | – | – | kinact/KI | 293000 M⁻¹ s⁻¹
COc1cc(-c2cncc3c2CN(C)Cc2cc(N4CCNCC4)ccc2-3)cc(OC)c1OC | BTK | kinase activity | – | 1 µM, human enzyme, together with: ATP 10 µM | relative to: DMSO control | remaining activity | 107%
C=CC(=O)N1CCC(C(=O)NCC(=O)N2CCN(c3nc(-c4cnc(N)nc4C(F)F)nc(N4CCOCC4)n3)CC2)CC1 | BTK | KINOMEscan | – | 1 µM | – | remaining binding | 66%
O=C(NC1CCC1)c1ccc2nc(-c3cccc(NS(=O)(=O)NCCN4CCCCC4)c3)cn2c1 | BTK | enzyme activity | – | 10 µM | – | remaining activity | 78%
O=C1NC(=O)/C(=C/c2ccc(-c3ccc(F)cc3O)o2)S1 | BTK | enzyme activity | – | 10 µM | – | remaining activity | 45%

A few entries again:
SMILES | target | test | test system | conditions | scale | measurement | value
C[C@@H](c1ccc(-n2cnc3c(N)ncnc32)cc1)N1CCc2nn(C)c(Cc3ccccc3)c2C1=O | BTK | KINOMEscan | – | 0.1 µM | relative to: DMSO | remaining binding | 81%
Cc1cc(Nc2cc(N3CCN(C)CC3)nc(Sc3ccc(NC(=O)C4CC4)cc3)n2)[nH]n1 | BTK | kinase activity, KinaseProfiler | – | 0.03 µM, species human | relative to: control | remaining activity | 91%
CN1C(=O)C(=C(C#N)C(=O)NCc2ccc(Cl)cc2)c2ccccc21 | UCHL1 | covalent, intact protein LC-MS | – | 12.5 µM | – | labelling | 43.6%
